# Results collected from several papers.
# A part holds a random share of what one study measured.
# Sequence of UniProt P10721 (whole entry, unmodified, looked up): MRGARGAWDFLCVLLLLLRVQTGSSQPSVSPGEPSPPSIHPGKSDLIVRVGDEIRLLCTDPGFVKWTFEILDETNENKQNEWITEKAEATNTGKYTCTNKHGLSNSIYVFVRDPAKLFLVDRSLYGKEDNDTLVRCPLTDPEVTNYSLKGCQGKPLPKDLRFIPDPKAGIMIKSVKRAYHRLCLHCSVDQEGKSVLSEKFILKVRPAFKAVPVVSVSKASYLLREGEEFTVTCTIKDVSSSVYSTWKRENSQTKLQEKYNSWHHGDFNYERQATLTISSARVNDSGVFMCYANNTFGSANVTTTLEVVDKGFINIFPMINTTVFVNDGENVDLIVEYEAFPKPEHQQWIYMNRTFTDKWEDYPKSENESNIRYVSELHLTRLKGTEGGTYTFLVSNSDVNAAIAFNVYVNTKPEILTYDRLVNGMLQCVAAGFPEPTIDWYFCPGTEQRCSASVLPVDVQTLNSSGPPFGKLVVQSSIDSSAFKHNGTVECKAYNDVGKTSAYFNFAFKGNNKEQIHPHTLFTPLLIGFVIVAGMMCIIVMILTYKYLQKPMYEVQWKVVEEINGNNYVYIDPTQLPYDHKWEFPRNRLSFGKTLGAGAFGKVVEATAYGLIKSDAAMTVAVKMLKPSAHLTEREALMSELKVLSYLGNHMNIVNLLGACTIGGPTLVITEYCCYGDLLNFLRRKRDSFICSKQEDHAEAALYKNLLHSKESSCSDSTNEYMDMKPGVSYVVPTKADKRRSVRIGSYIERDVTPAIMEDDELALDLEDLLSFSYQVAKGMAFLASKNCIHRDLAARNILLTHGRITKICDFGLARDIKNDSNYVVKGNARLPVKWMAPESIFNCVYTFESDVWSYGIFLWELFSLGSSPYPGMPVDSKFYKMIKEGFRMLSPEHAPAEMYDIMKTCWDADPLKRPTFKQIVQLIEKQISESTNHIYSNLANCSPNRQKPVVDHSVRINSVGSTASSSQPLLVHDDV
# Sequence of UniProt Q32MK0 (whole entry, looked up): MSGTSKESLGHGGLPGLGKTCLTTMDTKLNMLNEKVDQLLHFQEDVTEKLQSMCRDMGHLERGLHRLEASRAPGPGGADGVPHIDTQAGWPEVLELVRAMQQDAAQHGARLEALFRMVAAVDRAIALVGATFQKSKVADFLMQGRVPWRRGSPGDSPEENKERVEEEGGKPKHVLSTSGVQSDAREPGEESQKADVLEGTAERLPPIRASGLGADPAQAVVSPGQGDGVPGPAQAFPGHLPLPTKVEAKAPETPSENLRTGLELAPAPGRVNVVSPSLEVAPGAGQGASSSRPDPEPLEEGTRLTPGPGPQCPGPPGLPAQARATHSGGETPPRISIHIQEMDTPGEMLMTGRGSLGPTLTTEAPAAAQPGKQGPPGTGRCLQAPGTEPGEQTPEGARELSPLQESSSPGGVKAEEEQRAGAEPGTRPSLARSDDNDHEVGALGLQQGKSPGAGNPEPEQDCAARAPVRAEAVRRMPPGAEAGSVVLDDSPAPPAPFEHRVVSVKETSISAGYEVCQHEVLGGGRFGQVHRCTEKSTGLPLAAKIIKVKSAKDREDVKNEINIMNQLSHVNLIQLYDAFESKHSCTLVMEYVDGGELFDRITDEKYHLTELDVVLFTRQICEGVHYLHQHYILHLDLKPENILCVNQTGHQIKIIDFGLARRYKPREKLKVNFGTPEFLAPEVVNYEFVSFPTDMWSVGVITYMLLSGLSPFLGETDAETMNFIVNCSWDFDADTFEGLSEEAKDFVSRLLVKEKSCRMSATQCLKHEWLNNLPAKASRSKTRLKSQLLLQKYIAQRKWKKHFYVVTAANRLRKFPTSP
# Sequence of UniProt P31749 (whole entry, looked up): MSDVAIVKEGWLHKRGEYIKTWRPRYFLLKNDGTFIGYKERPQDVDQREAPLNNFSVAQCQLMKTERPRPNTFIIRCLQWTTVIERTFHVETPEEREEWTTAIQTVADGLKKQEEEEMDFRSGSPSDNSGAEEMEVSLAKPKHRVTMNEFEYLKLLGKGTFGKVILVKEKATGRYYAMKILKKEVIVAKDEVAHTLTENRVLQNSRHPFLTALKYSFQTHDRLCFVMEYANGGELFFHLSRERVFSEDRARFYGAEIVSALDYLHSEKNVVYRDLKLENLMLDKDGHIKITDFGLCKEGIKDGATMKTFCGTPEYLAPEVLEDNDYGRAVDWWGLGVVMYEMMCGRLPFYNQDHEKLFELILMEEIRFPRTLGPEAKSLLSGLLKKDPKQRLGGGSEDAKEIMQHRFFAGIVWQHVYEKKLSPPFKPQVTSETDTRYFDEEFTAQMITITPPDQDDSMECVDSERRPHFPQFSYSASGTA
# Sequence of UniProt P53667 (whole entry, looked up): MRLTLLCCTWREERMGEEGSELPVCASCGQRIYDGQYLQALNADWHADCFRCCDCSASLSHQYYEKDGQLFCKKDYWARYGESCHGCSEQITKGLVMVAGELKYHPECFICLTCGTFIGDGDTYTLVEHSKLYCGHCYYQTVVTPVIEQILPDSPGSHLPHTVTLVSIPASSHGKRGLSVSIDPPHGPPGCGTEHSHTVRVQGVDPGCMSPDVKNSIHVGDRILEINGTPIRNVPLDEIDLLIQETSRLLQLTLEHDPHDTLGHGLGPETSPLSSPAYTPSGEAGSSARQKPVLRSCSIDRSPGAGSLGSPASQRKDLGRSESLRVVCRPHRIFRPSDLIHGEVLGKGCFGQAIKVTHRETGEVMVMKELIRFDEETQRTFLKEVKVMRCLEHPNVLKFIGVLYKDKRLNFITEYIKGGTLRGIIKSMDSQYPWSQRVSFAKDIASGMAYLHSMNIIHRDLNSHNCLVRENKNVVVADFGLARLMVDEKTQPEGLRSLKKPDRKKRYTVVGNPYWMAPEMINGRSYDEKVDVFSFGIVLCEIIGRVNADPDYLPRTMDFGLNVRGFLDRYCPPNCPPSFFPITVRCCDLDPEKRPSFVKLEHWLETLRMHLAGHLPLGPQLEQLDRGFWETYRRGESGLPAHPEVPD
# Sequence of UniProt Q9Y243 (whole entry, looked up): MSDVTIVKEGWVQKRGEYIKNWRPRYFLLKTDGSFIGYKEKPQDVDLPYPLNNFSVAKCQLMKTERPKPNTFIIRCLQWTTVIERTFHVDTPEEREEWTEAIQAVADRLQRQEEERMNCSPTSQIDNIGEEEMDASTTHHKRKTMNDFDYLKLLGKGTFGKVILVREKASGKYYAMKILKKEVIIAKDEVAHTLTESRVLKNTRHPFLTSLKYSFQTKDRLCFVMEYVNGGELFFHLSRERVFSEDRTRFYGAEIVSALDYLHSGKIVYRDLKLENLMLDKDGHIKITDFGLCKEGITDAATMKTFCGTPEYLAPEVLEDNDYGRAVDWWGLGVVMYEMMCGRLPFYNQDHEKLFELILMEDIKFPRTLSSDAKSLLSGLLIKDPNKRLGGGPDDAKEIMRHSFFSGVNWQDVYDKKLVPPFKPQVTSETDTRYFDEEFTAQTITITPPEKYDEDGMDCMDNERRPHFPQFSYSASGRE
# Sequence of UniProt P29597 (whole entry, looked up): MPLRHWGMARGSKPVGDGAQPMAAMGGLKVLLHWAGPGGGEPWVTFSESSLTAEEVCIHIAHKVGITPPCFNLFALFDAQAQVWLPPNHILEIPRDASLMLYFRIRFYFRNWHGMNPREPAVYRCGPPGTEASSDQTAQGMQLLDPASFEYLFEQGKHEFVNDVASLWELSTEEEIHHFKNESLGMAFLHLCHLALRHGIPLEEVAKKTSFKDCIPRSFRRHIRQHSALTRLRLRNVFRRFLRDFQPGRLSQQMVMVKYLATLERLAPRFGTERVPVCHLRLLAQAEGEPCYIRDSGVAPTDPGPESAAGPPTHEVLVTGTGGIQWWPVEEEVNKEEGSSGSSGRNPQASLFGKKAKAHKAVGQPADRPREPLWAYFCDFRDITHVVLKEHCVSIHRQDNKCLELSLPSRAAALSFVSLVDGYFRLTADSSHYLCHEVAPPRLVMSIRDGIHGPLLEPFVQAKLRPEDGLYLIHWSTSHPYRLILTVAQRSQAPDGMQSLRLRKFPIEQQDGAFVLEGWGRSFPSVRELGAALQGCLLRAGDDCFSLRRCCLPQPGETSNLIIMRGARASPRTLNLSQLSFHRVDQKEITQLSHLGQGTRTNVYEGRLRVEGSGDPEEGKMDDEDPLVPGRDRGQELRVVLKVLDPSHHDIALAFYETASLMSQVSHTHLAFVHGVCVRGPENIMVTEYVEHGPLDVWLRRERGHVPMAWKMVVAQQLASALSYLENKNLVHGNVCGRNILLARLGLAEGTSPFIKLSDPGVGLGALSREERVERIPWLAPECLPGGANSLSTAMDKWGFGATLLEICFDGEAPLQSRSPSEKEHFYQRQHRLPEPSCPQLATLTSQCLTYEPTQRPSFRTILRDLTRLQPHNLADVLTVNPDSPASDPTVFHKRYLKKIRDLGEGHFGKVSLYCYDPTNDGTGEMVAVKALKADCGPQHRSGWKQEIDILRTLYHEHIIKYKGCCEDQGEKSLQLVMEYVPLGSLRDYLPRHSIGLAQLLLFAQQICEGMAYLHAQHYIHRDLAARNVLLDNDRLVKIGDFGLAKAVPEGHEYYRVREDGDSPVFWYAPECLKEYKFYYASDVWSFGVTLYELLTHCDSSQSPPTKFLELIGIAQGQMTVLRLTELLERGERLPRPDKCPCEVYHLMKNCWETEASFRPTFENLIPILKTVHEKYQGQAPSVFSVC
# Sequence of UniProt Q9HAZ1 (whole entry, looked up): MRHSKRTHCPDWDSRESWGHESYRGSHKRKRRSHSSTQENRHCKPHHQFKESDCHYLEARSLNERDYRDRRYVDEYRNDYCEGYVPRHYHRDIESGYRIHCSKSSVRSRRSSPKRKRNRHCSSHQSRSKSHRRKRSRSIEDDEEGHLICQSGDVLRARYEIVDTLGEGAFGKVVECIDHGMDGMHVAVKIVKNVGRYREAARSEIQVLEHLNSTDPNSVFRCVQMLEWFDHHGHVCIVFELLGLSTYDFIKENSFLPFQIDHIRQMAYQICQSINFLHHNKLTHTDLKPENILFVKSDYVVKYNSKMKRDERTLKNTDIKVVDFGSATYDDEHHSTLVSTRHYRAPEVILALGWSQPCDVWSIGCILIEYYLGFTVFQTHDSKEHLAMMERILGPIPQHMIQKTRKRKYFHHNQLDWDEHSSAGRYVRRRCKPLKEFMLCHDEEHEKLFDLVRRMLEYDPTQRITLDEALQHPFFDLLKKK

# Sample 1
# SMILES: CN1CCN(C(=O)c2ccc(NC(=O)Nc3ccc(N(C)c4ccnc(Nc5ccc(CS(C)(=O)=O)cc5)n4)cc3)cc2)CC1
# Concentration: 1 µM
target,test,setting,how to read,remaining binding
"STK32C (Homo sapiens, UniProt Q86UX6)","competitive binding panel, measured: YANK3",,baseline: vehicle,100%
"DAPK1 (Homo sapiens, UniProt P53355)",competitive binding panel,,baseline: vehicle,95%
"CLK4 (Homo sapiens, UniProt Q9HAZ1)",competitive binding panel,,baseline: vehicle,100%
"LATS1 (Homo sapiens, UniProt O95835)",competitive binding panel,,baseline: vehicle,68%
"NIM1K (Homo sapiens, UniProt Q8IY84)","competitive binding panel, measured: NIM1",,baseline: vehicle,99%
"PTK6 (Homo sapiens, UniProt Q13882)",competitive binding,BRK,,95%
"PIK3C2B (Homo sapiens, UniProt O00750)",competitive binding panel,,baseline: vehicle,100%
"MYLK (Homo sapiens, UniProt Q15746)",competitive binding panel,,baseline: vehicle,100%
"MELK (Homo sapiens, UniProt Q14680)",competitive binding panel,,baseline: vehicle,81%
"MAP4K2 (Homo sapiens, UniProt Q12851)",competitive binding panel,,baseline: vehicle,43%
"STK32A (Homo sapiens, UniProt Q8WU08)","competitive binding panel, measured: YANK1",,baseline: vehicle,68%
"SIK3 (Homo sapiens, UniProt Q9Y2K2)",competitive binding,QSK,,86%
"PRKCE (Homo sapiens, UniProt Q02156)",competitive binding panel,,baseline: vehicle,99%

# Sample 2
# Structure (SMILES): CC(C)[C@H](CO)Nc1nc(Nc2cccc(Cl)c2)c2ncn(C(C)C)c2n1
# Observed: enzyme activity
# Mode: inhibitor
# Concentration: 0.5 µM
# Baseline: control
target,remaining activity
"MARK3 (Homo sapiens, UniProt P27448)",96.6%
"STK25 (Homo sapiens, UniProt O00506)",116%
"FYN (Homo sapiens, UniProt P06241)",48.9%
"PASK (Homo sapiens, UniProt Q96RG2)",93.1%
"MATK (Homo sapiens, UniProt P42679)",93.1%
"FER (Homo sapiens, UniProt P16591)",62.9%
"ITK (Homo sapiens, UniProt Q08881)",86.9%
"NEK11 (Homo sapiens, UniProt Q8NG66)",67.1%
"Cyclin-dependent kinase 3, with cyclin E (CDK3, Homo sapiens, UniProt Q00526)",34.5%
"Insulin receptor (INSR, Homo sapiens, UniProt P06213)",83%
"NLK (Homo sapiens, UniProt Q9UBE8)",99.2%
"FLT4 (Homo sapiens, UniProt P35916)",110%
"PRKX (Homo sapiens, UniProt P51817)",97.4%
"PKN1 (Homo sapiens, UniProt Q16512)",100%
"HIPK1 (Homo sapiens, UniProt Q86Z02)",103%
"ALK (Homo sapiens, UniProt Q9UM73)",100%
"AKT1 (Homo sapiens, UniProt P31749)",102%
"CDC42BPA (Homo sapiens, UniProt Q5VT25)",92.3%
"FGR (Homo sapiens, UniProt P09769)",44.3%
"LIM domain kinase 1 (LIMK1, Homo sapiens, UniProt P53667)",86.3%
"TAOK3 (Homo sapiens, UniProt Q9H2K8)",91.1%

# Sample 3
# Structure (SMILES): CCS(=O)(=O)c1cc2cc(C[C@@](O)(CC(C)(C)c3ccc(F)cc3C(N)=O)C(F)(F)F)[nH]c2cn1
# Observed: cell-free assay
# Technique: competition with immobilised ligand
# Concentration: 1 µM
target,remaining binding [%]
"MYLK3 (Homo sapiens, UniProt Q32MK0)",80
"PLK4 (Homo sapiens, UniProt O00444)",87
"SNRK (Homo sapiens, UniProt Q9NRH2)",98
"MAP2K5 (Homo sapiens, UniProt Q13163)",81
"Non-receptor tyrosine-protein kinase TYK2, JH1 (TYK2, Homo sapiens, UniProt P29597)",82
"AKT3 (Homo sapiens, UniProt Q9Y243)",90
"EPHA8 (Homo sapiens, UniProt P29322)",100
"EGFR (Homo sapiens, UniProt P00533, A750P/del747-749)",79
"CDK18 (Homo sapiens, UniProt Q07002)",100
"Ribosomal protein S6 kinase alpha-3, N-terminal kinase domain (RPS6KA3, Homo sapiens, UniProt P51812)",100
"MAP3K2 (Homo sapiens, UniProt Q9Y2U5)",100
"RPS6KB1 (Homo sapiens, UniProt P23443)",80
"PIK3CA (Homo sapiens, UniProt P42336, Q546K)",69
"MAP3K9 (Homo sapiens, UniProt P80192)",96
"Tyrosine-protein kinase ABL1, phosphorylated (ABL1, Homo sapiens, UniProt P00519, H396P)",99

# Sample 4
# Compound: C=CC(=O)N1CCC[C@@H](n2nc(-c3ccc(Oc4ccccc4)cc3)c3c(N)ncnc32)C1
# Mode: inhibitor
# Concentration: 1 µM
target,test,inhibition
"CDK11A (Homo sapiens, UniProt Q9UQ88)",enzyme activity,0%
"KIT (Homo sapiens, UniProt P10721, L576P)",,67%
"KIT (Homo sapiens, UniProt P10721, D816V)",,8%
"FGFR2 (Homo sapiens, UniProt P21802)",,57%
"Tyrosine-protein kinase ABL1, phosphorylated (ABL1, Homo sapiens, UniProt P00519, Y253F)",,53%
"KIT (Homo sapiens, UniProt P10721, T670I/V559D)",,2%
"MYLK3 (Homo sapiens, UniProt Q32MK0)",enzyme activity,12%
"BMPR1B (Homo sapiens, UniProt O00238)",enzyme activity,7%
"EGFR (Homo sapiens, UniProt P00533, del747-752/P753S)",,51%
"RET (Homo sapiens, UniProt P07949, V804L)",enzyme activity,18%
"EPHB6 (Homo sapiens, UniProt O15197)",enzyme activity,87%
"MAP4K3 (Homo sapiens, UniProt Q8IVH8)",enzyme activity,5%
"MUSK (Homo sapiens, UniProt O15146)",enzyme activity,7%
